Results from different studies.
Protocols differ between the studies behind these lines. Several values in a cell are separate wells, animals, samples, runs or records. Numbers after ± are the reported error.

Oc1cccc(Nc2nc(-c3ccc(F)cc3F)cs2)c1
inhibition (GABA transporter; 10 µM): -11.9%

CNC(=O)c1cc(Oc2ccc(NC(=O)Nc3ccc(Cl)c(C(F)(F)F)c3)cc2)ccn1
inhibition (AMPK (rat); kinase activity, inhibitor; 10 µM): -2%

CNCc1ccc(-c2cc(-c3nc(-c4ccc(S(=O)(=O)C(C)C)cc4)cnc3N)on2)cc1
inhibition (AMPK (rat); inhibitor; 2 µM, together with: ATP at Km): 20%

COc1cc(O)c2c(c1)O[C@H](c1ccccc1)CC2=O
inhibition (bovine serum albumin; methylglyoxal-mediated glycation, fluorescence; concentration not given): 11.9 ± 3.63%

CCN1CCN(Cc2ccc(NC(=O)c3ccc(C)c(Oc4ccnc5[nH]ccc45)c3)cc2C(F)(F)F)CC1
inhibition (ERK1/2 human; Huh-7; 1 µM): -51.4%

CC(C(=O)Nc1ccc([C@H]2[C@@H](F)[C@@H](F)C[C@@H](F)[C@H]2F)cc1)n1cncn1 (stereo partly shown)
hepatic clearance (dog liver microsomes; 1 µM): 10 mL/min/kg

O=c1c(O)c(-c2ccc(O)c(O)c2)oc2c(Br)c(O)c(Br)c(O)c12
inhibition (bovine serum albumin; methylglyoxal-mediated glycation, fluorescence; concentration not given): 60.85 ± 0.43%

O=C(c1ccc(Cl)cc1)N(Cc1ccccc1)C1CCCCC1
inhibition (KATP channel; 10 µM): -6.9%

O=C(Nc1ccc([C@H]2[C@@H](F)[C@@H](F)C[C@@H](F)[C@H]2F)cc1)c1cn[nH]c1
hepatic clearance (dog liver microsomes; 1 µM): 7.3 mL/min/kg

COc1cc(NC(C)=O)c(Cl)cc1C(=O)Nc1nccs1
inhibition (GABA transporter; 10 µM): 3%

CCN(CC)CCNC(=O)c1c(C)[nH]c(/C=C2\C(=O)Nc3ccc(F)cc32)c1C
inhibition (AMPK (rat); kinase activity, inhibitor; 10 µM): 81%

C#Cc1cc(-c2cc(Nc3nc(N[C@@H](C)c4ccc(F)cn4)ncc3Cl)n[nH]2)ccc1C=O
inhibition (NPM1-ALK kinase fusion, human; kinase activity, inhibitor; 0.2 µM): 39.9% and 36.8%

O=C1C[C@@H](c2ccc(O)cc2)Oc2c(Br)c(O)c(Br)c(O)c21
inhibition (bovine serum albumin; methylglyoxal-mediated glycation, fluorescence; concentration not given): 96.53 ± 0.34%

COC(=O)CCc1ccc(C(=O)N/N=C/C(Br)=C/c2ccccc2)cc1
inhibition (human Hsp90β-p23 interaction; split luciferase reporter; HEK293T; 30 µM, 24 h): 19%

O=c1cc(-c2ccc(O)cc2)oc2c(Br)c(O)c(Br)c(O)c12
inhibition (bovine serum albumin; methylglyoxal-mediated glycation, fluorescence; concentration not given): 97.8 ± 2.09%

O=C(c1ccc(F)cc1)N(Cc1ccccc1)C1CCCCC1
inhibition (KATP channel; binding; 10 µM): 22%

Repeated from above:
O=C(Nc1ccc([C@H]2[C@@H](F)[C@@H](F)C[C@@H](F)[C@H]2F)cc1)c1cn[nH]c1
hepatic clearance (dog liver microsomes; 1 µM): 7.3 mL/min/kg
